# Results gathered from unrelated publications.
# Lines come from different studies, so protocols differ. Values joined by “and” are separate records of one study, mostly repeats; a detail may differ. Numbers after ± are the reported error.
Compound,test,system,setting,how to read,measurement,result
C/C(N)=N/C(=N\S(=O)(=O)c1ccc(C(F)(F)F)cc1)N1C[C@H](c2ccccc2)C(c2ccc(Cl)cc2)=N1,,"C57BL/6 mouse, heart","intravenous, 10 mg/kg",,Tmax,6 min
C=C(NC(=O)c1csc(-c2nc3c(cc2O)-c2nc(cs2)C(=O)NC(C(C)O)C(=O)NC(=C(C)OC)c2nc(cs2)C(=O)NC2c4nc(cs4)C(=O)NC(COC(=O)c4c5c6c(cccc6n4O)COC(=O)C(OC4CC(C)(O)C(N(C)C)C(C)O4)C2OC5)c2nc-3cs2)n1)C(N)=O (stereo not drawn),,"cynomolgus monkey, female, plasma","intravenous infusion, 3 mg/kg single dose",,MRT(0-last),1.36 h
CCC(=O)N(C)c1ccc(Cl)c(Cl)c1,LC-MS/MS,"mouse C57BL/6 female, plasma","intravenous, 2 mg/kg, 0.5 h",,plasma concentration,184 ng/mL and 214 ng/mL
O=C(Nc1cnccc1-c1ccc([18F])nc1)c1ccnc(NC(=O)C2CC2)c1,PET imaging,"FVB/NJ mice, both sexes, liver","intravenous, 60 min",,median SUV,8.04
COc1cccc(OC)c1-c1cc(C(=O)NC2(C(=O)O)C3CC4CC(C3)CC2C4)nn1-c1ccc(C(=O)N(C)CCOCCOCCN(C)C(=O)[C@H](CCCCNC(=O)[C@H](CC(C)C)NC(=O)C2OC2C(=O)O)NC(=O)CN2CCN(CC(=O)[O-])CCN(CC(=O)[O-])CCN(CC(=O)[O-])CC2)cc1C(C)C.[177Lu+3] (mixture of isomers),,"mouse, HT-29 xenograft","4 h post injection, biodistribution",relative to: tumour over liver uptake,tumour-to-liver ratio,2.59
CC(C)=CCC1=C([O-])C(=O)c2ccccc2C1=O.CC(C)=CCC1=C([O-])C(=O)c2ccccc2C1=O.O.[Cu+2].c1ccc(-c2ccccn2)nc1,cyclic voltammetry,dichloromethane,"0.1 mM, with: 0.1 M Bu4NPF6",relative to: Ag/AgCl in saturated KOH,cathodic peak potential,-1.42 V
Cc1noc(C)c1Cn1cc(N2C(=O)CN(Cc3cccc(OS(=O)(=O)O)c3)C2=O)cn1,,"Sprague-Dawley rat, male","oral, 10 mg/kg of parent drug, 8 h",,plasma concentration,764 ng/mL
CCCCN1C(=O)c2cccc3c(NCCCCCCCCN4CCOCC4)ccc(c23)C1=O,,ethyl acetate,,,absorption maximum,429 nm
[2H]C1([2H])CC[C@@H](C[C@@H](C#N)NC(=O)[C@@H]2[C@@H]3[C@H](CN2C(=O)[C@@H](NC(=O)C(F)F)C(C)(C)C)C3(C)C)C(=O)N1,,human liver microsomes,microsomes 0.5 mg/mL,,intrinsic clearance,17 µL/min/mg
O=C(Nc1cnccc1-c1ccc([18F])cc1)c1ccnc(NC(=O)C2CC2)c1,,"mice, transgenic, GSK-3β, early-stage, muscle","intravenous, dose not given, 120 min, with: tariquidar 15 mg/kg i.v. pre-dose",,SUV,0.2
Cc1nc(N)nc2c1C(=O)N[C@@H](c1ccc(F)cc1-c1cccc(O[11CH3])n1)C2,ex vivo biodistribution,"healthy mice, lungs","60 min post-injection, baseline, vehicle pre-treatment",,SUV,2.2 ± 0.4
Cc1cc(Cl)cc(S(C)(=O)=NC#N)c1NC(=O)c1cc(Br)nn1-c1ncccc1Cl (stereo not drawn),potentiometric,,,,pKa,8.15
CC(C)(O)c1ncc([S@](N)(=O)=NC(=O)Nc2c3c(cc4c2CCC4)CCC3)s1,refers to: Psychiatric disorders,healthy human volunteers,"oral, 25 mg twice daily, 14 days, enteric-coated tablet",,subjects with adverse events,13%
CC[C@H](C)[C@H](NC(=O)[C@H](CC(N)=O)NC(=O)[C@@H](N)CCSC)C(=O)N[C@@H](CCSC)C(=O)N[C@@H](CC(=O)O)C(=O)N[C@@H](Cc1ccccc1)C(=O)N[C@@H](CC(N)=O)C(=O)N[C@H](C(=O)N[C@@H](CCCCN)C(=O)N[C@@H](CCCCN)C(=O)N[C@@H](CC(C)C)C(=O)N[C@@H](C)C(=O)N[C@@H](C)C(=O)N[C@@H](CC(=O)O)C(=O)N[C@@H](C)C(=O)NCC(=O)N[C@H](C(=O)N[C@@H](Cc1c[nH]c2ccccc12)C(=O)N[C@@H](CC(C)C)C(=O)N[C@@H](CO)C(=O)N[C@@H](CCCNC(=N)N)C(=O)N[C@@H](C)C(=O)N[C@H](C(=O)N[C@@H](CCC(N)=O)C(=O)N[C@@H](Cc1ccccc1)C(=O)N[C@H](C(=O)N[C@@H](CCC(=O)O)C(=O)N[C@@H](CCC(=O)O)C(=O)N[C@@H](CCCCN)C(=O)N[C@@H](CC(C)C)C(=O)NCC(=O)N[C@@H](CCC(N)=O)C(=O)N[C@@H](C)C(N)=O)[C@@H](C)O)C(C)C)[C@@H](C)O)C(C)C,circular dichroism,aqueous TFE,"50 µM, pH 7.4, 20 °C",,TFE midpoint,2.64 ± 0.04 M
CN1CCC[C@]1(C)/C=C/S(=O)(=O)NC(=O)Nc1c2c(cc3c1C(O)CC3)CCC2 (stereo partly drawn),,"human, plasma","oral, 100 mg twice daily of parent drug, day 1, metabolite of dosed drug",,AUC(0-tau),123000 ng·h/mL
Cc1ccc(CN2C(=O)/C(=N\c3ccc(Cl)cc3Br)c3ccccc32)cc1,,"mouse, blood",150 mg/kg,,MPV,5.3 ± 0.12 fL
Cc1onc(-c2ccccc2)c1-c1ccc(S(=O)(=O)Cl)cc1,"chemical stability, HPLC-MS",borate buffered saline,"pH 10.2, no N-acetyl-lysine",,degradation rate constant,1.9 h⁻¹
Cc1nc(N)nc2c1C(=O)N[C@@H](c1ccc(F)cc1-c1cccc(OCC[18F])n1)C2,ex vivo biodistribution,"C57BL/6 mice, pancreas","intravenous, 1 MBq, 30 min",,SUV,1.75 ± 0.13
Cc1cc(-c2ccc(C(=O)[C@@H]3CCCC[C@H]3C(=O)Nc3cnn4c3C(=O)NCC4)cc2)[nH]n1,,"human, faeces","oral, 200 mg, 216-240 h",relative to: dose,radioactivity recovery per interval,0.28% and 2.09%
COc1cccc(OC)c1-c1cc(C(=O)NC2(C(=O)O)C3CC4CC(C3)CC2C4)nn1-c1ccc(C(=O)N(C)CCOCCN(C)C(=O)[C@H](CCCCNC(=O)[C@H](CC(C)C)NC(=O)C2OC2C(=O)O)NC(=O)CN2CCN(CC(=O)[O-])CCN(CC(=O)[O-])CCN(CC(=O)[O-])CC2)cc1C(C)C.[177Lu+3] (mixture of isomers),,"mouse, HT-29 xenograft","4 h post injection, biodistribution",relative to: tumour over liver uptake,tumour-to-liver ratio,3.53
CCCCN1C(=O)c2cccc3c(NCCCCCCCCCCN4CCOCC4)ccc(c23)C1=O,,chloroform,,,absorption maximum,428 nm
C[C@@H]1O[C@@H](O[C@@H]2[C@@H](O)[C@H](O)[C@@H](CO)O[C@H]2c2c(O)cc(O)c3c(=O)cc(-c4ccc(O)cc4)oc23)[C@H](O)[C@H](O)[C@H]1O,,"Sprague-Dawley rat, bile","intravenous, 20 mg/kg, 8 h",,cumulative biliary excretion amount,148 ± 8.01 µg
CN(C(=O)C(C)(C)c1cc(C(F)(F)F)cc(C(F)(F)F)c1)c1cnc(N2C[C@H]3COCCN3C[C@H]2CO)cc1-c1ccc(F)cc1CO,,"human, plasma","oral, 120 mg, geometric mean",,AUC extrapolated,5.29%
Cc1c(Cc2ccc(F)c(OC(C)C(=O)O)c2)c2ccc(C(=O)NC(C)c3ccc(C(C)(C)C)cc3)cc2n1CC(C)C (stereo not drawn),metabolic stability,"mouse, liver microsomes",,,half-life,0.833 h
CC1Cc2ccccc2N1C(=O)CN1CCN(Cc2ccccc2)CC1 (stereo not drawn),,female NMRI mice,"intraperitoneal, 10 mg/kg free base, 60 min",relative to: brain over blood,tissue/plasma ratio,8.29
CCCCN1C(=O)c2cccc3c(NCCCCCCN4CCOCC4)ccc(c23)C1=O,,"1,4-dioxane",,,fluorescence quantum yield,1.06
CN1CCN(C(=S)N/N=C/c2ccccc2O)CC1,,plasma,"intravenous, 30 mg/kg",,clearance,170 ± 19.5 mL/min/kg
CN(O)C(=O)CCC(=O)NCCCN(CCCCN(CCCNC(=O)CCC(=O)N(C)O)C(=O)CCC(=O)N(C)O)C(=O)CCC(=O)N(C)O.[89Zr],,"mouse, heart",1 h,,tracer uptake,0.29 %ID/g
CCCCN1C(=O)c2cccc3c(NCCCCN4CCOCC4)ccc(c23)C1=O,,dichloromethane,,,fluorescence quantum yield,0.33
COc1ccc2c(c1)CCn1c[n+]3c(c1-2)-c1ccc(OC)cc1CC3,,"female NSG mice, blood","6 mg/kg, day 20, 5 days per week",,MCHC,32.2 ± 0.74 g/dL
Cc1c(Cc2ccc(Cl)c(OC(C)C(=O)O)c2)c2ccc(C(=O)NC(C)c3ccc(C(C)(C)C)cc3)cc2n1CC1CCC1 (stereo not drawn),metabolic stability,"mouse, liver microsomes",,,half-life,> 1 h
CCCCN1C(=O)c2cccc3c(NCCN4CCOCC4)ccc(c23)C1=O,,chloroform,,,absorption maximum,427 nm
C=CC(=O)Nc1cc(Nc2nccc(-c3cn(C)c4ccccc34)n2)c(OC)cc1N(C)CCNC,storage stability,human plasma,"30 d, on ice, MQC level",,recovery,52.2%
Cc1[nH]nc2c1N=C(c1ccccc1Cl)c1cnc(N3CCOCC3)cc1N2,,"male beagle dog, plasma","intravenous, 1 mg/kg",,half-life,7.64 h
CN1CCC[C@]1(C)/C=C/S(=O)(=O)NC(=O)Nc1c2c(cc3c1CCC3)CC=C2,,"human, plasma","oral, 12.5 mg twice daily of parent drug, day 14, metabolite of dosed drug",,AUC(0-tau),72100 ng·h/mL
COc1ccc2c(c1)C(C)(C)C(/C=C/C1=C(Oc3ccc(C(=O)NCCCCOc4cc(CN(Cc5ccccn5)Cc5ccccn5)cc(CN(Cc5ccccn5)Cc5ccccn5)c4)cc3)C(=C/C=C3/N(CCCCS(=O)(=O)[O-])c4ccc(OC)cc4C3(C)C)CCC1)=[N+]2CCCCS(=O)(=O)[O-].O=[N+]([O-])[O-].O=[N+]([O-])[O-].[99Tc+].[C-]#[O+].[C-]#[O+].[C-]#[O+].[Zn+2],biodistribution,"BALB/c mouse, healthy",12 h post-injection,,thyroid/trachea uptake,1.14 %ID/g

# Some of these lines once more:
Compound,test,system,setting,how to read,measurement,result
Cc1nc(N)nc2c1C(=O)N[C@@H](c1ccc(F)cc1-c1cccc(OCC[18F])n1)C2,ex vivo biodistribution,"C57BL/6 mice, pancreas","intravenous, 1 MBq, 30 min",,SUV,1.75 ± 0.13
Cc1noc(C)c1Cn1cc(N2C(=O)CN(Cc3cccc(OS(=O)(=O)O)c3)C2=O)cn1,,"Sprague-Dawley rat, male","oral, 10 mg/kg of parent drug, 8 h",,plasma concentration,764 ng/mL
Cc1onc(-c2ccccc2)c1-c1ccc(S(=O)(=O)Cl)cc1,"chemical stability, HPLC-MS",borate buffered saline,"pH 10.2, no N-acetyl-lysine",,degradation rate constant,1.9 h⁻¹
C/C(N)=N/C(=N\S(=O)(=O)c1ccc(C(F)(F)F)cc1)N1C[C@H](c2ccccc2)C(c2ccc(Cl)cc2)=N1,,"C57BL/6 mouse, heart","intravenous, 10 mg/kg",,Tmax,6 min
